Assay results pooled from the literature.
Lines come from different studies, so protocols differ. ± marks the error that the study gave.

SMILES | test | system | setting | tissue uptake
CC(C)[C@H](NC(=O)[C@@H]1CCCN1C(=O)[C@H](CCCNC(=N)N)NC(=O)[C@H](CS)NC(=O)[C@H](Cc1c[nH]c2ccccc12)NC(=O)[C@H](CCCNC(=N)N)NC(=O)[C@@H](Cc1ccccc1)NC(=O)[C@H](Cc1c[nH]cn1)NC(=O)[C@H](CCC(=O)O)NC(=O)[C@H](CS)NC(=O)[C@H](CS)NC(=O)COCCOCCNC(=O)[C@@H]1CC(=O)N[C@@H](CCCNC(=N)N)C(=O)NCC(=O)N[C@@H](CC(=O)O)C(=O)N[C@H](Cc2ccc(O)cc2)C(=O)N1)C(N)=O [technetium-99m labelled] |  | nude mouse, M21 melanoma xenograft, bone | intravenous, 2 h | 0.27 ± 0.09 %ID/g
CC(C)[C@H](NC(=O)[C@@H]1CCCN1C(=O)[C@H](CCCNC(=N)N)NC(=O)[C@H](CS)NC(=O)[C@H](Cc1c[nH]c2ccccc12)NC(=O)[C@H](CCCNC(=N)N)NC(=O)[C@@H](Cc1ccccc1)NC(=O)[C@H](Cc1c[nH]cn1)NC(=O)[C@H](CCC(=O)O)NC(=O)[C@H](CS)NC(=O)[C@H](CS)NC(=O)[C@@H]1CC(=O)N[C@@H](CCCNC(=N)N)C(=O)NCC(=O)N[C@@H](CC(=O)O)C(=O)N[C@H](Cc2ccc(O)cc2)C(=O)N1)C(N)=O [technetium-99m labelled] |  | C57 mouse, female, B16/F1 melanoma, liver | intravenous, 0.037 MBq, 24 h | 0.65 ± 0.1 %ID/g
CCCC[C@H](NC(=O)CN1CCC(NC(=O)CN2CCN(CC(=O)O)CCN(CC(=O)O)CCN(CC(=O)O)CC2)CC1)C(=O)N[C@H]1CC(=O)NCCCC[C@@H](C(N)=O)NC(=O)[C@H](Cc2c[nH]c3ccccc23)NC(=O)[C@H](CCCNC(=N)N)NC(=O)[C@@H](Cc2ccccc2)NC(=O)[C@H](Cc2c[nH]cn2)NC1=O [gallium-68 labelled] | biodistribution | C57BL/6J mouse male tumour-bearing, adrenal glands | 1 h post injection, unblocked | 0.5 ± 0.2 %ID/g
COC(=O)c1ccc(-c2cn(Cc3cc(Cl)ccc3O[11CH3])nn2)cc1 | PET/CT | C57BL/6 mouse, liver | 60 min | 5.65 %ID/cc
O=C(O)CCC(NP(=O)(O)OCCC[C@@H](NC(=O)CC[C@H](NC(=O)CCCCCNC(=O)c1ccc([18F])cc1)C(=O)O)C(=O)O)C(=O)O (stereo partly drawn) |  | mouse, CWR22Rv1 xenograft, spleen | dose not given, 4 h, blocking agent pre-dosed | 0.275 ± 0.065 %ID/g
CN(C)c1ccc(-c2nc3ccc(OCCCCCN4CCN5CCN(CC4)CC(=O)[O][Al]([18F])[O]C(=O)C5)cc3s2)cc1 |  | ICR mouse, kidney | intravenous, 2 min | 14.1 ± 1.82 %ID/g
O=C([O-])CN1CCN(CC(=O)[O-])CCN(CC(=O)NCCc2ccc3c(c2)C2C=CCC2C(c2cc4c(cc2Br)OCO4)N3)CCN(CC(=O)[O-])CC1.[111In+3] (stereo not drawn) |  | mouse, Hec50 endometrial tumour, large intestine | 2 h post injection | 15.3 ± 4.78 %ID/g
CCCC[C@H](NC(=O)CNC(=O)CNC(=O)CN1CCN(CC(=O)O)CCN(CC(=O)O)CC1)C(=O)N[C@H]1CC(=O)NCCCC[C@@H](C(N)=O)NC(=O)[C@H](Cc2c[nH]c3ccccc23)NC(=O)[C@H](CCCNC(=N)N)NC(=O)[C@@H](Cc2ccccc2)NC(=O)[C@H](Cc2c[nH]cn2)NC1=O [copper-64 labelled] |  | female C57 mouse, B16/F1 melanoma, kidneys | intravenous, 0.037 MBq, 2 h | 4.92 ± 1.43 %ID/g
CC(C)C[C@H](NC(=O)C[C@H](O)[C@H](CC(C)C)NC(=O)[C@H](Cc1c[nH]cn1)NC(=O)CNC(=O)[C@@H](NC(=O)[C@H](C)NC(=O)[C@H](Cc1c[nH]c2ccccc12)NC(=O)[C@H](CCC(N)=O)NC(=O)[C@@H](Cc1ccccc1)NC(=O)CCNC(=O)CCNC(=O)CN1CCN(CC(=O)O)CCN(CC(=O)O)CCN(CC(=O)O)CC1)C(C)C)C(N)=O [lutetium-177 labelled] |  | mouse PC-3 xenograft, tumour | intravenous, 200 pmol, 4 h, without PA | 8.3 ± 1.7 %ID/g
CCCC[C@H](NC(=O)CNC(=O)CNC(=O)CN1CCN(CC(=O)O)CCN(CC(=O)O)CCN(CC(=O)O)CC1)C(=O)N[C@H]1CC(=O)NCCCC[C@@H](C(N)=O)NC(=O)[C@H](Cc2c[nH]c3ccccc23)NC(=O)[C@H](CCCNC(=N)N)NC(=O)[C@@H](Cc2ccccc2)NC(=O)[C@H](Cc2c[nH]cn2)NC1=O [lead-203 labelled] |  | C57 mouse, blood | intravenous, 0.056 MBq, 4 h | 0.59 ± 0.16 %ID/g
CCCC[C@H](NC(=O)CNC(=O)CNC(=O)CN1CCN(CC(=O)O)CCN(CC(=O)O)CCN(CC(=O)O)CC1)C(=O)N[C@H]1CC(=O)NCCCC[C@@H](C(N)=O)NC(=O)[C@H](Cc2c[nH]c3ccccc23)NC(=O)[C@H](CCCNC(=N)N)NC(=O)[C@@H](Cc2ccccc2)NC(=O)[C@H](Cc2c[nH]cn2)NC1=O [copper-64 labelled] |  | female C57 mouse, B16/F1 melanoma, heart | intravenous, 0.037 MBq, 2 h | 1.75 ± 0.13 %ID/g
CC(C)[C@H](NC(=O)[C@@H]1CCCN1C(=O)[C@H](CCCNC(=N)N)NC(=O)[C@H](CS)NC(=O)[C@H](Cc1c[nH]c2ccccc12)NC(=O)[C@H](CCCNC(=N)N)NC(=O)[C@@H](Cc1ccccc1)NC(=O)[C@H](Cc1c[nH]cn1)NC(=O)[C@H](CCC(=O)O)NC(=O)[C@H](CS)NC(=O)[C@H](CS)NC(=O)CNC(=O)[C@@H]1CC(=O)N[C@@H](CCCNC(=N)N)C(=O)NCC(=O)N[C@@H](CC(=O)O)C(=O)N[C@H](Cc2ccc(O)cc2)C(=O)N1)C(N)=O [technetium-99m labelled] |  | C57 mouse, female, B16/F1 melanoma, liver | intravenous, 0.037 MBq, 4 h | 2.75 ± 0.51 %ID/g
